Results collected from several papers.
Every numbered part comes from another study and shows a few of its results, in no order. Substitutions count along the parent as printed.

Sample 1 — method: protein binding microarray; molecule type: double-stranded DNA, one strand shown; matrix: in vitro; concentration: not given; reference: not given; direction: higher = stronger binding
Target: Histone acetyltransferase KAT6A, both winged helices, GST fusion (KAT6A, Homo sapiens, UniProt Q92794, residues 1-181)
Setting: 8-mer, flanks averaged, mean of 2 arrays, mostly near background
Construct (chain): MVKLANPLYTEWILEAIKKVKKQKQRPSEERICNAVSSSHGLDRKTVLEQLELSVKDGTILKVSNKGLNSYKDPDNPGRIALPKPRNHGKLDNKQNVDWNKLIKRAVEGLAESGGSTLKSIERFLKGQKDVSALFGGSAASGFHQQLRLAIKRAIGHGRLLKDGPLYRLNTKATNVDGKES
Oligonucleotide	E-score
GGATACCC	0.00364
AAGGCTGC	-0.135
ACCGCAGG	0.135
ACCTTGCA	-0.156
CGACTCAA	-0.105
TGCGCCCA	0.0668
GTACATGA	-0.0447
AAAACCCT	-0.173
GAACAACC	0.0408
CCCGCGTC	0.224
ATTTTTGG	-0.114
CGCAAATC	0.184
AAGAATCA	-0.192
AACATATA	-0.107
AGATCGCA	-0.00461
CTTGGGAA	-0.0527

Sample 2 — method: universal PBM; molecule type: double-stranded DNA, one strand shown; matrix: in vitro; concentration: 600 nM; direction: higher = stronger binding
Target: Sal-like protein 4, full length isoform A (SALL4, Homo sapiens, UniProt Q9UJQ4, residues 1-1053)
UniProt Q9UJQ4, sequence (whole entry, looked up): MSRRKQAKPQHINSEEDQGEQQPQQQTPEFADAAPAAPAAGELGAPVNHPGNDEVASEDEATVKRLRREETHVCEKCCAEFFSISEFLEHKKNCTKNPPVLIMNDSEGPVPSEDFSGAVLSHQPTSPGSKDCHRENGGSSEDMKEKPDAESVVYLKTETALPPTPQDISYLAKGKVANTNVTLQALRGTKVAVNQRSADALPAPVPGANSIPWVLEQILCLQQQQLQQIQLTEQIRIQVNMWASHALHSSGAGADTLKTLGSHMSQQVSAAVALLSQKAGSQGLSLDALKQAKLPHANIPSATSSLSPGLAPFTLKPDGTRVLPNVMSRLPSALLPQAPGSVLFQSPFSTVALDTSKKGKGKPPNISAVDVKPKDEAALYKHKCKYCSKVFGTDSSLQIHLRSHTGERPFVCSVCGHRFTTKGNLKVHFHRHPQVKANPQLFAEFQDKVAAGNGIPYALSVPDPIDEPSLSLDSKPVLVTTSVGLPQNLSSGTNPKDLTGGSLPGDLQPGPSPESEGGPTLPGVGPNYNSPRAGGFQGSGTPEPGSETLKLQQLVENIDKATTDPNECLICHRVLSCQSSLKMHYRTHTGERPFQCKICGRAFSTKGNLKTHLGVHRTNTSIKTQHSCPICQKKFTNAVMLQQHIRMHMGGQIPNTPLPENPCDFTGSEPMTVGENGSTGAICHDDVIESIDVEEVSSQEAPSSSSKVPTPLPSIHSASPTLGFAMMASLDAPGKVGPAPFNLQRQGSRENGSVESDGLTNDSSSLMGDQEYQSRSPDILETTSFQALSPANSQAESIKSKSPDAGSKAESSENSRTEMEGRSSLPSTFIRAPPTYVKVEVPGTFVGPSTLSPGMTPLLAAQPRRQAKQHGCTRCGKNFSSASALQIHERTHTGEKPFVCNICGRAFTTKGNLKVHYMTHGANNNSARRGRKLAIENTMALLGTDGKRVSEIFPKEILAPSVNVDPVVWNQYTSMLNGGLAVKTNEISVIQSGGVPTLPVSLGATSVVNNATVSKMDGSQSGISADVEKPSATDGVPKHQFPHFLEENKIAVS
Setting: 8-mer, flanks averaged, mean of replicates
Oligonucleotide	E-score
CCACCTGA	-0.0377
CCCCGCAA	-0.0811
ATCAACTC	0.0653
ATAGCGTC	0.119
GGTACCAA	-0.253
CACTTAGG	-0.00647
CGCGCTCC	-0.309
AATATGCT	0.306
AAACGGCG	-0.0923
TACAGGCA	0.0287
CTTTTCTA	0.106
GCCGGTTA	-0.129
GTGTCAGA	-0.0108
ATACTGCG	-0.0198
ATGTTGTC	0.0949
ATTCTCGG	0.0687
AGCAGCTA	-0.0294
CGCCCCCC	-0.422
CGCTTAAA	0.0868
CCGCCACC	-0.263
GAGAGCAC	-0.134

Sample 3 — target: CEP164, C-terminal peptide (human); method: DHFR complementation, deep sequencing; matrix: yeast; reference: wild type; direction: higher = weaker binding
Setting: single substitutions, model-inferred values
Starting sequence: PDZK1, PDZ domain 2 (human); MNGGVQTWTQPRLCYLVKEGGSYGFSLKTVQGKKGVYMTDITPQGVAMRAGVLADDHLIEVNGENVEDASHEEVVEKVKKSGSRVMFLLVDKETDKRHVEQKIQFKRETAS; partner HNRVKVYRF
Variant	binding free energy change [kcal/mol]
R49E	0.452
G63P	0.555
V46G	1.15
F25H	1.6
Q101D	-0.0846
K33N	0.348
V5N	0.0335
G32C	0.486
G32H	0.3
T94Q	-0.126
M1V	-0.108
E108Y	-0.196
D68C	0.136
G24F	0.871
G3S	-0.0531
D91H	0.0347
G4Y	0.128
S81I	1.04
S111A	-0.147
K92W	0.073
M1P	-0.244

Sample 4 — method: RNA Bind-n-Seq; molecule type: RNA; matrix: in vitro; concentration: 200 nM; setting: whole 134-nt RNA, ends assumed; with: 150 mM LiCl; reference: input library; direction: higher = stronger binding; each molecule: 7-deaza-guanosine replaces G
Target: Ras GTPase-activating protein-binding protein 1, full length (G3BP1, Homo sapiens, UniProt Q13283)
UniProt Q13283, sequence (whole entry, looked up): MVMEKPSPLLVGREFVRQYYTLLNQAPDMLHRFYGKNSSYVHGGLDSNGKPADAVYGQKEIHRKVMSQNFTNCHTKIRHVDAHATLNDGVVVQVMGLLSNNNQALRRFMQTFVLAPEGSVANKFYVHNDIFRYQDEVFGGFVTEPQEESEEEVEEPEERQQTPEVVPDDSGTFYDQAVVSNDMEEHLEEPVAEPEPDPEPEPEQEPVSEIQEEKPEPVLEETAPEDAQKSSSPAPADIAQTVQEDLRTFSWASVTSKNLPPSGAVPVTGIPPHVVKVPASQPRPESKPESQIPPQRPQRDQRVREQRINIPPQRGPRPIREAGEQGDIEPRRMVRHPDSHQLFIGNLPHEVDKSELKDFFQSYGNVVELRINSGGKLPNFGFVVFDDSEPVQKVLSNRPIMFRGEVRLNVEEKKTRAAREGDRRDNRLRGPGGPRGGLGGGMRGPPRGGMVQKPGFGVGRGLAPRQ
Oligonucleotide	log2 enrichment
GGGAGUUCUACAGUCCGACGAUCUGCAUGUGCACUGAUAGGCCAAGGCCAGCUGAACCAGGCCAUGAAAAUCCUACAAAAAGCUGAAGGUUGGAAGUUUGUUAAACUUAUCUGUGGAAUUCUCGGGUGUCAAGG	-1
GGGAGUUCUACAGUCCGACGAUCUGUGGAUGCCCUGCUGAAGAAGUCUGAGGCCCAGCAUGAACAGCCGGAAGAUGGAUGCCCCUUUGGUGCCCUGACGCAGCGCCUCCUGCAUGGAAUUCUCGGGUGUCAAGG	-0.92
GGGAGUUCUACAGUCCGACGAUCACCAUGCUGGUGGGCAUCUUUGGGAAGUGGGGCAAGGGGGGGAUAGGGAGGGGGGUAACACUUUGGGAACAGGUGGUCCCAGGUCGUUUCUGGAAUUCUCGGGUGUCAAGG	0.426
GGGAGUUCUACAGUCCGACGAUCCCUCAAGUCCUGUGCUACACAUCGUAUGUACCGAAUCGUGUGUGUGUGUGUGUAAAGUAUUAUGUUACGCCGUUCGGAUCUGCACUUCCAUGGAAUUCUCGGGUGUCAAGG	-0.332
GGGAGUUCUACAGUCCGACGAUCGCAGGAAGUAAAAACAAAUGGAAAUGCUUCGGAUAGUGGCAGGGGUGGGGGUUGCUAAGGAAAGGGUAAAAUGGGAGUGGGUAAAGAGUUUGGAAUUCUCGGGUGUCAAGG	0.346
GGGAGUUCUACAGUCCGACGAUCUAACUUUAGAGGAGGAUCUGAUGGAUAUGGCAGUGGACGUGGAUUUGGGGAUGGCUAUGAUGGGUAUGGAGGAGGACCUGGAGGUGGCAAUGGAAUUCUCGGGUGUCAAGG	-0.0653
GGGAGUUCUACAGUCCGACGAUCCCUGUGCUACACAUCGUAUGUACCGAAUCGGGGAAAAAAAGGGGAAAGGGGUUUUUGGGGAAAGUAUUAUGUUACGCCGUUCGGAUCUGCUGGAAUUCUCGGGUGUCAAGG	0.854
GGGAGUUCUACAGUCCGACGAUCGUCCUGUGCUACACAUCGUAUGUACCGAAUCGGGCCCCCCGGCCCCCCGGCCCCCCGGGAAAGUAUUAUGUUACGCCGUUCGGAUCUGCAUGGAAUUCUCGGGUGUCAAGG	-0.56

Sample 5 — method: DHFR PCA, deep sequencing; matrix: yeast; with: (+)-ABA 17 µM; reference: wild-type fitted maximum; direction: higher = stronger binding
Target: ABI1, truncated, D143A, DHFR fusion (Arabidopsis thaliana)
Setting: methotrexate growth selection, single substitutions
Starting sequence: PYL1, truncated, DHFR fusion (Arabidopsis thaliana); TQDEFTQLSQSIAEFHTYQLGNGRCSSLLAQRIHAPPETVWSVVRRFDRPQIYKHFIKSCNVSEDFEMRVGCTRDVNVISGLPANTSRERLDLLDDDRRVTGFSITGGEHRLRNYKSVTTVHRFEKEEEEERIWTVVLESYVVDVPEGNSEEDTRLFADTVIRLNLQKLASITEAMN; partner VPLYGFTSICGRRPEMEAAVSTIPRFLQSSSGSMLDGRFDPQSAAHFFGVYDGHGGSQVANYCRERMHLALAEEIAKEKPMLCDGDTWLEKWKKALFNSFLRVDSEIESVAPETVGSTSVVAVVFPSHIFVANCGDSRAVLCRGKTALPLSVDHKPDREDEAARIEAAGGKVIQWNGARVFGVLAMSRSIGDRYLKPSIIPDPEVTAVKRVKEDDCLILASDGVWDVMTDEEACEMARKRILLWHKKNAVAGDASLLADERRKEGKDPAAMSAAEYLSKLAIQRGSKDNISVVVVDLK
Variant	relative binding score [%]
L91N	-11.3
Y53R	15
R24I	64.6
R113M	78.7
E127D	98.5
P50M	-3.46
R98H	61.6
K116P	-23.6
R98E	44.5
N149F	-2.61
T86R	67.6
V145N	15.5

Further values, each from its own experiment
Molecule	target	assay	system	conditions	how to read	endpoint	result
PhoQ, residues 284 288 289 292 302 303 QWQEDG	PhoP, residues 12 14 15 18 19 LHSVQ (Escherichia coli, UniProt P23836)	Sort-seq, refers to: YFP reporter	E. coli	PhoQ-PhoP variant library, with: 10 µM Mg2+	reference: high Mg2+ state, higher = stronger signaling	fold induction	2.11
PPVKRRLDLETDH	human cyclin B2	cyclin docking binding, deep mutational scanning	peptide, yeast cyclin B2-Cln2 system		direction not given	score minus score, wild type	0

For quick reference, copied from above (sample 5):
Variant	relative binding score [%]
L91N	-11.3
R24I	64.6
E127D	98.5
R113M	78.7
